Published values pooled from the literature.
Each numbered part is a random draw from the data of one study; scales do not carry over between parts. Several values in a cell are separate wells, animals, samples, runs or records.

Series 1
Organism: SARS-CoV-2
Effect on: cytopathic effect
Cell line: Vero E6
Tested at: 10 µM
Measurement: inhibition
O=C(O)C(=O)CBr: 4.7%
C=CC(=O)c1ccc2ccccc2c1: -2.1%
Sc1nnc(Nc2ccccc2)s1: 2.6%
CN1CCc2cccc3c2[C@H]1Cc1ccc(O)c(O)c1-3: 0.22%

Series 2
Target: RNA binding protein fox-1 homolog 2, RRM domain, GST-SBP tag (RBFOX2, Homo sapiens, UniProt O43251-10, residues 100-194)
Method: RNA Bind-n-Seq
Molecule type: RNA
Sample: in vitro
Tested at: 365 nM
Setting: natural RNA segment, single round, ends assumed
Reference: no-protein control
Reading: higher = stronger binding
Measurement: RBNS enrichment (R)
Shared flanks, not repeated: GGGAGUUCUACAGUCCGACGAUC … UGGAAUUCUCGGGUGCCAA
Construct (chain): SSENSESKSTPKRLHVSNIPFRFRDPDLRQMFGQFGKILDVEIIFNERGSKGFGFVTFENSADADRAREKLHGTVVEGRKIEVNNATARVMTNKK
UUACAGGUCGUUAUUCUUCUAAGCAGUAGGUAACUUUUCCUGGGUUUCAUUCUUUCUAGUGUACUAGAUCCAGAAAUUUAGUGUGAUGCCCUGCUUUCUCUUUUCUUUGA: 0.294
CUUGAGUUAAUCAACCACUGGCAAAUCCCAUUUGACAAAGAUUAGCAUUGUAAAAAACAGAUACUGUGGUAGAUUUCUAGAAAUUCAUUCACAUUUAAGACUUCUAAAAU: 0.455
UUUGGUGAAAUAUCAAAAAAAUGCAAGUACAGCAUGCAUAUUUAAGAAUUUCUGAACUAACACUUGAAAUCACAUUUUAUAAAGAUUGUUGGUACUCAGAGUUGUAUUUG: 0.72
CCAUCCUUCCUACAGUUAGAGCCCCAGUAGUGCGAGAAGGCCCCAUAUAUGGCAGCAUUCAGCUCUCACCCAACACUUGUGCUGGGCUUCCCUUCAGCAGCCUCCCAGAC: 0.519
GCCAUGCUUGCCUAAGACCUCGUUCUGUUCUCCCAUAAGGCCGUCCUUCCCACAGUACCUUAAGAUUGCCCAGCCUCCCUGCUCUAGUGGCUGGGGCUCCCUUACCAGAG: 2.28
UUGGGCUCAUGUCCUGGGUUUUGGCUCUUUAAUGAUUACUCCAGGCCAGCAUUUAGUCGUUUGAGAAUUGUAGCCUGUUGUUUUCGCUGUGACUUGGGUCUCAGUGCUAG: 1.32
AUGAAAAGUGCCAUACUUAACUUUUAAAGGAAAGACCUGACUUGCUUUUUCUCUAUUUAGACUGUUUUUGUACUUUACUAAUCUUUAAACUAUCAGGAAAAAAACCAAAA: 1.03
AACUUAAGAUGUAUUUUAAGGACUUUAUCUGUGCUUCAUCACCCAACUUGUUCACAUUGUUAAUUUCUGUCCAGAGACCUGAAACUGCUUAAGUAUGGGAACAGACUGAA: 0.243

Series 3
Target: Interferon regulatory factor 5, full length, phosphomimetic (IRF5, Homo sapiens, UniProt Q13568-2, residues 1-514, K96S/S451D/S453D/S456D/S462D)
Method: protein-binding microarray
Molecule type: double-stranded DNA, one strand shown
Sample: in vitro
Tested at: 250 nM
Setting: 60-bp whole probe
Together with: salmon DNA 0.4 mg/ml
Reference: random background probes
Reading: higher = stronger binding
Measurement: log fluorescence
Shared flanks, not repeated: GCCTAGCAC … GTCTTGATTCGCTTGACGCTGCTG
GACGGTTTCAGTTTCGAGACGTGCTAG: 7.89 z-score
TTAGGATTCGACACTGGGTTAGTGCTA: 0.0102 z-score
TCATTTTTTTTCATCATACTGTGCTAG: 1.82 z-score
ACTAGTTTTCATTTTCTGAAGTGCTAG: 3.33 z-score
GTCGGTTTCGGTATCGGGACGTGCTAG: 10.6 z-score
TCACTGCTCCTTCTGACACTGTGCTAG: 0.0891 z-score
TCAAACCTGGGTCTCTGACTGTGCTAG: -0.58 z-score
GTAGATTTCAGTTTCGATTAGTGCTAG: 10.1 z-score

Series 4
Cell line: HEK-293T/ACE2
Tested at: concentration not given
Time: 16 (unit not given)
Reference: vehicle
Measurement: viability
O=c1[nH]cnc2c1ncn2[C@H]1CC[C@@H](CO)O1: 99.3%
CCOC(=O)CC(SP(=S)(OC)OC)C(=O)OCC (stereo not drawn): 99.5%
CC(C)n1c(/C=C/C(O)CC(O)CC(=O)O)c(-c2ccc(F)cc2)c2ccccc21 (stereo not drawn): 106%
CNC(=O)c1cc(Oc2ccc(NC(=O)Nc3ccc(Cl)c(C(F)(F)F)c3)cc2)ccn1: 88.2% and 93.4%

Series 5
Target: Replicase polyprotein 1ab, polymerase (rep, Severe acute respiratory syndrome coronavirus 2, UniProt P0DTD1)
Effect on: enzyme activity
Mode: inhibitor
Tested at: 20 µM
Measurement: inhibition
OC[C@H]1O[C@@H](n2cnc3c2N=CNC[C@H]3O)C[C@@H]1O: -3.77%
Cn1cc(C2=C(c3ccc(Cl)cc3Cl)C(=O)NC2=O)c2ccccc21: -14.5%
NCCNC(=O)c1ccc(Cl)cn1: -0.62%
CCN1CCN(Cc2ccc(Nc3ncc(F)c(-c4cc(F)c5nc(C)n(C(C)C)c5c4)n3)nc2)CC1: 4.21%
CON(C)C(=O)[C@H](O)[C@H](Cc1ccccc1)NC(=O)c1cc2cc(Cl)ccc2[nH]1: -1.01%
Cc1[nH]c2ccccc2c1C[C@@H](NC(=O)[C@@H](N)Cc1c[nH]cn1)C(=O)N[C@@H](C)C(=O)N[C@@H](Cc1c[nH]c2ccccc12)C(=O)N[C@H](Cc1ccccc1)C(=O)N[C@@H](CCCCN)C(N)=O: 4.78%
O=C(O[C@@H]1C[C@@H]2C[C@H]3C[C@H](C1)N2CC3=O)c1c[nH]c2ccccc12: -1.01%
CC(=O)N[C@@H](Cc1ccc(O)cc1)C(=O)O: 3.53%
O=C1c2c(O)cc(O)cc2O[C@H](c2ccc(O)c(O)c2)[C@H]1O: -0.99%
COc1cc2c(c(OC)c1OC)-c1c(cc3c(c1OC)OCO3)C[C@H](C)[C@H](C)C2: -8.28%
COc1cc(/C=C2\CCC/C(=C\c3ccc(O)c(OC)c3)C2=O)ccc1O: 9.65%
C[C@H]1[C@H](C)CC[C@]2(C(=O)O)CC[C@]3(C)C(=CC[C@@H]4[C@@]5(C)C[C@@H](O)[C@H](O)C(C)(C)[C@@H]5CC[C@]43C)[C@H]12: 7.7%
C[C@@H](O)[C@H]1C(=O)N2C(C(=O)O)=C([C@H]3CCCO3)S[C@H]12: 2.84%
COc1cc2c(cc1OC)[C@@H]1Cc3ccc(OC)c(OC)c3CN1CC2: -2.03%
COc1ccc(NS(=O)(=O)c2ccc(I)cc2)cc1N1CCN(C)CC1: -8.61%
Nc1ccc(C(=O)O)c(O)c1: 2.31%
C#Cc1cnc2nc(O)n(C(CC)CC)c2n1: -6.93%
CCOC(=O)n1ccn(C)c1=S: -6.78%
COc1ccc(/C=C/C(=O)O)cc1: -1.52%
COC[C@H]1OC(=O)c2coc3c2[C@@]1(C)C1=C(C3=O)[C@@H]2CCC(=O)[C@@]2(C)C[C@H]1OC(C)=O: 0.18%
Clc1cccc(Cl)c1NC1=NCCN1: -10%
CCC(CC)C(c1ccc(Nc2nc3ccccc3s2)cc1)n1cncn1 (stereo not drawn): -8.02%
Nc1nc(OCC2CCCCC2)c2[nH]cnc2n1: 11.4%
CN(C)c1ccc(C(=O)NCCCCCCC(=O)NO)cc1: 1.28%
CCCCCCCCN[C@@H](C)[C@H](O)c1ccc(SC(C)C)cc1 (racemic): 26.4%

Series 6
Target: Centromere-binding protein 1, full length, N-terminal tag (CBF1, Saccharomyces cerevisiae, UniProt P17106, residues 1-351)
Sequence of UniProt P17106 (whole entry, looked up): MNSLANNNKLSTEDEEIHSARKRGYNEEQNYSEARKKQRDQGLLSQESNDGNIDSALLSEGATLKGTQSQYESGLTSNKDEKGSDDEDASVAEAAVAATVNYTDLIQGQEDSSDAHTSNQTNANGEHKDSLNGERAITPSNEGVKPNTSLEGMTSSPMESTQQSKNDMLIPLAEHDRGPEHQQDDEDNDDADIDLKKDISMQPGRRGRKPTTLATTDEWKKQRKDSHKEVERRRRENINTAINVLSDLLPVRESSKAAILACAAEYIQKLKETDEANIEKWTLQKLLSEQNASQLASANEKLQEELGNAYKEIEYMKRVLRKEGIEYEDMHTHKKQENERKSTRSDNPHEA
Method: protein-binding microarray
Molecule type: double-stranded DNA, one strand shown
Sample: in vitro
Tested at: 0.8 µM
Setting: whole 60-bp probe, no competitor
Reading: higher = stronger binding
Measurement: fluorescence intensity
Shared flanks, not repeated: … GTCTTGATTCGCTTGACGCTGCTG
GAACCTGATTCACGTGATGTGGGAATTTTGTCTTAG: 16600 a.u.
GAATTTTGGACTTTTCACGTTGCAGGGACAGCATAG: 610 a.u.
TGTACGAAGCTATGTTTCGTGCATATAGTAGTTAGG: 518 a.u.
CTATTCTCTATAGGCATCACCATTGAAAAGTATTTC: 563 a.u.
GAATGCCTACGAAGGCACATGACAATCACGTAATAG: 1320 a.u.
GAACGTCGTTGTGCACGTGACACTCACCCCAATTAG: 21400 a.u.
CTATGTTATCCGGCGCACGATACTTATCACCGATTC: 582 a.u.
GAAGCTTTTGAAGGTGGTGTCATTATTATTACGTAG: 504 a.u.

A few entries again (series 1):
O=C(O)C(=O)CBr: 4.7%
C=CC(=O)c1ccc2ccccc2c1: -2.1%
Sc1nnc(Nc2ccccc2)s1: 2.6%
CN1CCc2cccc3c2[C@H]1Cc1ccc(O)c(O)c1-3: 0.22%
